Measurements from different studies.
Parts stem from different laboratories: compare values within a part only. Numbers after ± are the reported error. Values after ≈ are worked out from the molar mass of the structure shown.

Block 1
Compound: Cc1cc(OCc2nnc(SC3CCCC3)n2-c2cccnc2)ccc1-c1ccc(S(C)(=O)=O)cc1
cell line	GI50 [nM]
SK-MEL-2	1700
NCI/ADR-RES	439
CCRF-CEM	1540
RXF 393	1020

Single results of other studies
EPHX2: Bifunctional epoxide hydrolase 2 (EPHX2, Homo sapiens, UniProt P34913)
Sequence of UniProt P34913 (whole entry, looked up): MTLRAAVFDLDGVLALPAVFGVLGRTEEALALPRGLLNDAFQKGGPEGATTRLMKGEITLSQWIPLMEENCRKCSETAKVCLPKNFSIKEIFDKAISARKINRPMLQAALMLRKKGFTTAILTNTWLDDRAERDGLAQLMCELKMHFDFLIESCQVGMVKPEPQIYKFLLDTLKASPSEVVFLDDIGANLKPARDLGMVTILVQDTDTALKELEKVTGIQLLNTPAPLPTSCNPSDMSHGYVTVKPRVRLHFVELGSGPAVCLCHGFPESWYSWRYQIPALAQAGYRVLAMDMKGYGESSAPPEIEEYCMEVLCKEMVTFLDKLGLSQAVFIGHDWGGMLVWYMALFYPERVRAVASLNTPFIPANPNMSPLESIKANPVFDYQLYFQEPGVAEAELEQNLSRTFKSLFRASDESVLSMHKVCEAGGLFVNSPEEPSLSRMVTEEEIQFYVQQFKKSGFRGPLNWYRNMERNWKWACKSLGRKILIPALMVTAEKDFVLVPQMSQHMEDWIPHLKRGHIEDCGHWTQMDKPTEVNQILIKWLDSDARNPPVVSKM
Substance	tested on	assay	system	conditions	quantity	result
O=C(Nc1ccc(-c2ccc3ccccc3n2)cc1)C1CCN(Cc2cccc(F)c2)CC1	–	–	sodium phosphate buffer, 1% DMSO	pH 7.4	solubility	31 to 63 µM (≈ 13.6 to 27.7 µg/mL)
pyc (Rhizobium etli, UniProt Q2K340)	NC(=O)OP(=O)(O)O	steady-state kinetics	–	pH 7.5, 25 °C, apparent	kcat/Km	15.5 ± 0.333 M⁻¹ s⁻¹
O=C(Nc1ccc(-c2cnc3ccccc3c2)cc1)C1CCN(Cc2ccc([N+](=O)[O-])cc2)CC1	EPHX2	–	–	–	IC50	36.4 nM
Cc1ccc(S(=O)(=O)Nc2c(N3CCC(NC(=O)Nc4ccc(F)c(C)c4)CC3)c(=O)c2=O)cc1	EPHX2	–	–	–	IC50	82.7 ± 7.9 nM

Some of these lines once more (block 1):
cell line	GI50 [nM]
RXF 393	1020
